Measured values pooled from the literature.
Protocols differ between the studies behind these lines. “And” joins repeats or separate records; there may be more than shown. ± gives the spread as reported. Converted amounts (≈) assume the structure as drawn.

| Structure (SMILES) | target or system | test | system | conditions | scale | quantity | result |
| --- | --- | --- | --- | --- | --- | --- | --- |
| O=C1N(Cc2ccccc2Cl)c2ccccc2C12NN=C(c1ccccc1)S2 (centres unmarked) | MDA-MB-468 | gene expression array, measured: TNIP1 mRNA | – | 10 µM, 12 h | baseline: untreated, up | fold change | 1.58 |
| COC[C@@H]([C@H](O)[C@H](O)C(=O)NCC[C@H](C)c1nc(/C=C/C[C@@H]2O[C@]3(C[C@@H](O)[C@@H]2C)O[C@H]([C@H](C[C@H](O)[C@H](C)[C@H](O)[C@H](C)/C=C(C)/C(C)=C/C=C/C(C)=C\C#N)OC)[C@H](OP(=O)(O)O)C3(C)C)co1)N(C)C | MDA-MB-231 BAX/BAK siRNA knockdown | CellTiter-Glo | – | concentration not given | baseline: normalised luminescence | viability | 54% and 37.2% |
| C[C@]12CC[C@H](O)C[C@H]1CC[C@@H]1[C@@H]2CC[C@]2(C)[C@@H](c3ccc(=O)oc3)CC[C@]12O | T47D | luciferase | – | 100 nM, reporter without ERE, unit not given | baseline: untreated | control reporter activity | 0.194 and 0.209 and 0.126 |
| COc1c(C)c2c(c(O)c1C/C=C(\C)CCC(=O)O)C(=O)OC2 | SU-DHL-6 | cell proliferation | blood cancer | – | – | IC50 | 0.661 µM |
| Nc1ncnc2c1ncn2[C@@H]1O[C@@H]2COP(=O)(O)O[C@H]3[C@@H](O)[C@H](n4cnc5c(=O)[nH]cnc54)O[C@@H]3COP(=O)(O)O[C@H]2[C@H]1O | HFF-1 | RNA sequencing, measured: Reactome R-HSA-2187338 | – | downregulated pathway | baseline: Zika virus alone | pathway fold enrichment | 5.88 |
| CC(C)N1CCC(NC2CCN(c3cccc(-c4cc5cc(F)ccc5[nH]4)c3)CC2)CC1 | KM12 | – | – | – | – | CC50 | 6.19 µM |
| COc1cc(CCC[P+](c2ccccc2)(c2ccccc2)c2ccccc2)c(OC)c2c1OCO2.[I-] | Malme-3M | SRB | – | – | – | LC50 | -4.46 log M |
| O=C1CCP(=S)(c2ccccc2)CC1 | SW-620 | Annexin V-FITC/PI flow cytometry | – | IC50, 72 h | – | late apoptotic cells | 48.5% |
| Nc1ncc(-c2nc(N3CCOCC3)nc(N3CCOCC3)n2)c(C(F)F)n1 | panel of 44 tumour cell lines | cell growth | – | 72 h, panel mean | – | GI50 | 0.236 µM |
| Oc1cc(Cl)ccc1Oc1ccc(Cl)cc1Cl | HepG2 | high content imaging, measured: nuclear size | – | 24 h, representative mode | – | point of departure | 5.62 µM and 9.55 µM |
| Nc1nc(N)nc(NC2CC2)n1 | THP-1 | pyroptotic LDH release | – | 2 µM, 40 min, added: LPS then nigericin | – | inhibition | -0.931% |
| CN1CCc2[nH]c(-c3ccnc(NC(=O)[C@@H](CC(F)F)c4ccc(F)cc4)c3)c(Nc3ccccc3)c2C1=O | MOLM-13 | RNA-seq, measured: MCM4 mRNA | – | 200 nM, 24 h | baseline: DMSO | log2 fold change | -3.3 |
| Cn1cncc1C1=CN(c2ncnc3[nH]cnc23)CCS1 | OVCAR-4 | – | – | ovarian cancer | – | CC50 | > 200 µM |
| Oc1ccc(C(c2ccc(O)cc2)(C(F)(F)F)C(F)(F)F)cc1 | HepG2 spheroids | Hoechst flow cytometry | – | 40 µM, 24 h | – | S phase cells | 6.57 ± 1.44% |
| OC(c1cc(C(F)(F)F)nc2c(C(F)(F)F)cccc12)C1CCCCN1 (centres unmarked) | human coronavirus OC43 | virus-induced cell killing | MRC-5 | screen | – | maximum inhibition | 48.1% |
| COc1ccc2c(c1)[nH]c1c(C)nccc12 | DU-145 | bisulfite pyrosequencing, measured: RASSF1A promoter CpG site 4 | – | 10 µM, 16 h | – | DNA methylation | 80.8% |
| O=C(Nc1ccc2[nH]nc(-c3ccncc3)c2c1)[C@@H]1CCN(CC(=O)N2CCN(c3ccc(-c4ncccn4)cc3)CC2)C1 | HCT116 | IncuCyte | – | concentration not given, 48 (unit not given) | – | PI-positive cells | 30.8 count and 38.3 count and 40.9 count |
| CN1CCN(C2(CNC3CCN(c4cccc(-c5cc6cc(F)ccc6[nH]5)c4)CC3)CCC2)CC1 | CAKI-1 | – | – | – | – | CC50 | 6.14 µM |
| CCCCC/C=C\C/C=C\C/C=C\C/C=C\CCCC(=O)NCCO | ReNcell VM | YO-PRO-1 staining | – | 24 h | – | concentration increasing apoptotic cells | ≤ 0.48 µM |
| Oc1ccc(C2(c3ccc(O)cc3)c3ccccc3-c3ccccc32)cc1 | HepG2 spheroids | Hoechst flow cytometry | – | 10 µM, 24 h | – | G1 phase cells | 71.5 ± 1.6% |
| COc1cc(C[C@@H](C)[C@@H](C)Cc2ccc(O)c(OC)c2)ccc1O | THP-1, PMA-differentiated | – | – | 10 µM, 24 h, added: LPS 1 µg/mL | baseline: LPS model | IL-6 mRNA level | decreased |

| Structure (SMILES) | target or system | test | system | conditions | scale | quantity | result |
| --- | --- | --- | --- | --- | --- | --- | --- |
| [CH3][Hg][Cl] | LUHMES MT1G-HiBiT G3 | measured: MT1G | – | 4 µM, 8 h | baseline: DMSO, maximum | luciferase activity | 21 fold |
| CCN(CC)c1ccc(C=NNC(=O)CSc2nc3ccccc3c(=O)n2Cc2ccc(S(N)(=O)=O)cc2)c(O)c1 | NCI/ADR-RES | NCI five-dose screen | – | – | – | CC50 | > 100 µM |
| CC(C)(C)c1cc(C=C(C#N)C#N)cc(Br)c1O | hCMEC/D3 | outcome: no effect, Western blot, measured: RAGE | – | 100 µM, no insulin | – | membrane expression | no effect |
| Oc1cc(Cl)ccc1Oc1ccc(Cl)cc1Cl | human iPSC cardiomyocytes | plate-normalised | – | concentration not given, hit retest | baseline: vehicle controls, SDs below control | MyBP-C level change | 14.5 SD |
| Cc1cc(C(C)(C)c2ccc(O)c(C)c2)ccc1O | HepG2 spheroids | Hoechst flow cytometry | – | 1 µM, 24 h | – | S phase cells | 8.97 ± 1.36% |
| C[C@]12Cc3cnn(-c4ccc(F)cc4)c3C=C1CC[C@@H]1[C@@H]2CC[C@@]2(C)[C@H]1CC[C@@]2(O)C#N | HEK293T ATF4-FLuc reporter | ATF4 reporter gene, activator, luciferase reporter | – | – | – | EC50 | > 9.96 µM |
| CC(c1ccccc1)(c1ccc(O)cc1)c1ccc(O)cc1 | HepG2 spheroids | Hoechst flow cytometry | – | 10 µM, 24 h | – | S phase cells | 8.92 ± 2.46% |
| C/C=C(/C)C(=O)O[C@H]1C(C)=C2[C@H]([C@@H]1OC(=O)CCCCCCC)[C@@](C)(OC(C)=O)C[C@H](OC(=O)CCC)[C@@]1(O)[C@H]2OC(=O)[C@@]1(C)O | HEK-293T | RNA-seq GSEA, measured: Hallmark interferon alpha response | – | 500 nM, 6 h | direction not given | normalized enrichment score | -1.06 |
| CC(=O)O[C@H]1CC[C@]2(C=O)[C@H]3CC[C@]4(C)[C@@H](C5=CC(=O)OC5)CC[C@]4(O)[C@@H]3CC[C@]2(O)C1 | human iPSC cardiomyocytes | plate-normalised | – | concentration not given, hit retest | baseline: vehicle controls, SDs below control | MyBP-C level change | 15.7 SD |
| Cc1cnc2ccc3c(nc(N)n3C)c2n1 | BALB/c 3T3 | – | – | 100 µM | baseline: solvent control | relative colony forming efficiency | 95 ± 11% |
| CCCCCC[C@H]1C(=O)O[C@H](C)[C@H](NC(=O)c2cccc(NC=O)c2O)C(=O)O[C@@H](C)[C@@H]1OC(=O)CC(C)C | HEK293T ATF4-FLuc reporter | ATF4 reporter gene, activator, luciferase reporter | – | – | – | EC50 | 0.0867 µM |
| CCC(=O)N(CCC#N)c1ccc2c(c1)OCCN2CC(=O)NCC(=O)Nc1ccc(C(=O)NCCCCCCC(=O)NO)cc1.O=C(O)C(F)(F)F | U-87 MG | cell viability, MTT | – | up to 50 µM | – | EC50 | no effect |
| COc1c(CCC[P+](c2ccccc2)(c2ccccc2)c2ccccc2)cc2c(c1OC)OCO2.[I-] | OVCAR-5 | SRB | – | – | – | LC50 | > -4 log M |
| CC[C@H](C)[C@H](NC(=O)[C@H](CCC(=O)O)NC(=O)[C@H](C)NC(=O)[C@H](Cc1c[nH]cn1)NC(=O)[C@H](C)NC(=O)[C@H](C)NC(=O)[C@H](Cc1c[nH]cn1)NC(=O)[C@@H](NC(=O)[C@H](C)NC(=O)[C@H](CCC(N)=O)NC(=O)[C@H](CO)NC(=O)[C@@H](NC(=O)[C@@H](N)CS)[C@@H](C)CC)C(C)C)C(=O)N[C@@H](CC(N)=O)C(=O)N[C@@H](CCC(=O)O)C(=O)N[C@@H](C)C(=O)NCC(=O)N[C@@H](CCCNC(=N)N)C(=O)O | mouse OT-II CD4 T cells | ELISA, measured: IL-2 | – | pulsed BMDCs 2 h co-culture 48 h | – | EC50 | 1.5 µg/mL |
| O=C(O)c1[nH]c(=O)[nH]c(=O)c1F | THP-1 | pyroptotic LDH release | – | 2 µM, 40 min, added: LPS then nigericin | – | inhibition | -32.9% |
| O=c1cc(-c2ccccc2)oc2c(O)c(O)ccc12 | SH-SY5Y Aβ-GFP cells | Aβ aggregation inhibition, GFP folding reporter | – | – | – | EC50 | 10.7 µM |
| Nc1ccccc1NC(=O)c1ccc(CNc2nccc(-c3cccnc3)n2)cc1 | human coronavirus OC43 | virus-induced cell killing | MRC-5 | maximum over 10 doses | – | maximum inhibition | 0% |
| C[C@@H](O)[C@H]1C(=O)N2C(C(=O)O)=C(SCCN=CN)C[C@H]12 | Escherichia coli DH5α expressing KPC-180 | bacterial growth | – | – | – | MIC | 1 µg/mL (≈ 3.34 µM) |
| O=Nc1ccccc1 | THP-1 | pyroptotic LDH release | – | 2 µM, 40 min, added: LPS then nigericin | – | inhibition | 4.93% |
| OC1CCN(c2ccc(/C=N/NC(=S)Nc3ccc(Br)cc3)cc2)CC1 | BEAS-2B and A549 | MTT | – | – | baseline: IC50 BEAS-2B over IC50 A549 | selectivity ratio | 10.7 |
